Results from different studies.
Parts stem from different laboratories: compare values within a part only.

Series 1
Target: Interferon regulatory factor 7, full length, phosphomimetic (IRF7, Homo sapiens, UniProt Q92985, residues 1-503, S101K/S471D/S472D/S475D/S476D/S477D/S483D/S484D/S487D)
Chain of UniProt Q92985 (whole entry, unmodified, looked up): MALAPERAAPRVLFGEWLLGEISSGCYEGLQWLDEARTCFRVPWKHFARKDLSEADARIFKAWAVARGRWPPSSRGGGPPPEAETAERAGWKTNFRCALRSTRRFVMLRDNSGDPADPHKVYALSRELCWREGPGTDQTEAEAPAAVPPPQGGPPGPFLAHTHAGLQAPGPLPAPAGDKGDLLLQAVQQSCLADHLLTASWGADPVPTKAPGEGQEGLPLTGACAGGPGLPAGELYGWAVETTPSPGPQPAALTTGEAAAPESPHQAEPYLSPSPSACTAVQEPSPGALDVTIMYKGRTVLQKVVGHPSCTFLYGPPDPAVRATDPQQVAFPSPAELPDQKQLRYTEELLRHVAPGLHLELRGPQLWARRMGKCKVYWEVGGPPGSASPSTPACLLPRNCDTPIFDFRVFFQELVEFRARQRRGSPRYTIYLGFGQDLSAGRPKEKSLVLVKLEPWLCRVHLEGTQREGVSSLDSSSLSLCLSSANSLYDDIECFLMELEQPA
Technique: protein-binding microarray
Form: double-stranded DNA, one strand shown
Medium: in vitro
Tested at: 250 nM
Notes: 60-bp whole probe
Added: salmon DNA 0.4 mg/ml
Relative to: random background probes
Direction: higher = stronger binding
Quantity: log fluorescence
All sequences stand within: GCCTAGCAC … GTCTTGATTCGCTTGACGCTGCTG
GACGGTTTCGGTCTCGGGAGGTGCTAG: 7.76 z-score
TTAGGTTTCGGTTTCGGTAAGTGCTAG: 14.6 z-score
AAGTTTCTCCTTTCGGAATAGTGCTAG: 5.4 z-score
GGGCATTTAGAAAATGGAAATGTGCTA: -0.417 z-score
GACGATCTCGGGTTTCGAGACGTGCTA: 2.76 z-score
GATGGTTTCGGTTTCGGGACGTGCTAG: 14.3 z-score
TTAGGTATCGGGTATCGGTTCGTGCTA: 2.76 z-score
TTAGGTTTCGGGTCTGGGTTAGTGCTA: 7.77 z-score
GACGGTATCCTTATCCGGACGTGCTAG: 0.42 z-score
TCAGTCCTCACTTCCTTACTGTGCTAG: 1.23 z-score
GACGGACTGCTTTTCCTTACGTGCTAG: 0.0902 z-score
TTAGGACTGGGGTAACGGTTAGTGCTA: -0.382 z-score
TGAGCTACAGATGAGGCTCGGTGCTAG: -0.14 z-score
GACGGTTTCCTATTCCTGACGTGCTAG: 3.7 z-score
CCCTGTGTCCACAGCTGGATGTGCTAG: 0.0546 z-score
TTAGGTCTCGGTAGCGGTTAGTGCTAG: 0.143 z-score
GACGATCTCACTTTCGAGACGTGCTAG: 1.02 z-score
GACGATTTCAGTATCGAGTCGTGCTAG: 1 z-score

Series 2
Target: Histone acetyltransferase KAT6A, both winged helices, GST fusion (KAT6A, Homo sapiens, UniProt Q92794, residues 1-181)
Technique: protein binding microarray
Form: double-stranded DNA, one strand shown
Medium: in vitro
Tested at: not given
Notes: 8-mer, flanks averaged, mean of 2 arrays, mostly near background
Relative to: not given
Direction: higher = stronger binding
Quantity: E-score
Residues (chain): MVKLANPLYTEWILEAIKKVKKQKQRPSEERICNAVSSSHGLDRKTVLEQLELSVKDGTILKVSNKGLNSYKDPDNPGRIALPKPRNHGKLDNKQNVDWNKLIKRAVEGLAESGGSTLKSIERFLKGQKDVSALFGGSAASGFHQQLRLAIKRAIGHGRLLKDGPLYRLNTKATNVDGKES
ATTATTGG: -0.0496
ATTTCACC: -0.114
GTGAATAA: -0.0959
AAATCATC: -0.202
ATCTGGCG: -0.0173
CGGGTTTC: 0.284
GGATGAAA: -0.0499
CTAGTCTA: -0.226
AGCTAAAC: -0.154
ACAAAGCA: -0.0591
ACTTTAAG: -0.0186
CGGCTGCA: 0.196
GGGACTCA: -0.0114
AATTAACG: 0.0902
AGACTGAG: -0.123
AATGGGGG: -0.25
GTTACCCA: -0.14
AAGCGGGT: 0.231
AGCGCGAT: 0.246
CCACATAA: 0.107
AACCACAT: -0.12
GCAACGCC: 0.0501
TGCACACA: -0.113
CAAATGTA: -0.104
ATTAGCTG: -0.182

Series 3
Molecule: PhoQ, residues 284 288 289 292 302 303 SQSLSM
Technique: Sort-seq
Item: YFP reporter
Medium: E. coli
Notes: PhoQ-PhoP variant library
Added: 10 µM Mg2+
Relative to: high Mg2+ state
Direction: higher = stronger signaling
Quantity: fold induction
PhoP, residues 12 14 15 18 19 VGHWL (Escherichia coli, UniProt P23836): 6.69
PhoP, residues 12 14 15 18 19 TPWTL (Escherichia coli, UniProt P23836): 1.05
PhoP, residues 12 14 15 18 19 NFFVT (Escherichia coli, UniProt P23836): 12.1
PhoP, residues 12 14 15 18 19 LHHYF (Escherichia coli, UniProt P23836): 6.22

Series 4
Target: RNA binding protein fox-1 homolog 2, RRM domain, GST-SBP tag (RBFOX2, Homo sapiens, UniProt O43251-10, residues 100-194)
Technique: RNA Bind-n-Seq
Form: RNA
Medium: in vitro
Tested at: 365 nM
Notes: natural RNA segment, single round, ends assumed
Relative to: no-protein control
Direction: higher = stronger binding
Quantity: RBNS enrichment (R)
All sequences stand within: GGGAGUUCUACAGUCCGACGAUC … UGGAAUUCUCGGGUGCCAA
Construct (chain): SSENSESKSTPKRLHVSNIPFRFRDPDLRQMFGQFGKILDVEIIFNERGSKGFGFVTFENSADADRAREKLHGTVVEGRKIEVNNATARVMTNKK
CUGUCAGUGGAUCCGUGCUUUGUCGGCCAGCGUUUCUGCAGUCUUUGUAAAGGCCCCACGAGAGCGGGCCAGGCCGUGUGCCUCAGGCCCUUCUCCCUGGGUGUGCUUAA: 0.267
GACUCGGGCUCCUGUGCCCUUAUUCAGGAAAAGCCUCUGUGUCACUGGCUGCCUCCACUCCCACUUCCCUGACACUGCGGGGCUUGGCUGAGAGAGUGGCAUUGGCAGCA: 2.65
AAGUUAUACACAUUGAAGACCCUAAAAAUCCCAGUCCAUCAUUCAGCUUACCUCUGCGAACUUCUAUCUGGUAUUGAAUCAGUUUCAGAAACACAGACAGAUCCAAGGAA: 0.263
UCUAGCUUUUAAAGAACUACAUGUGUCUUUAAAAGUAUUUAUUGUGCAAAUGUACUAUAGCAGUUCAUCUUCAUGUUCCAGCCUUACUCUGUGUUAAUACUGCUUCACAA: 0.526
UGGUUAUCCCAGAAACUUGUCUUCUAAAAGGGAGGACUCCAGGCCAUCAAUAAAGAUGUCCAGGCAGUGAGCGUACUUUUUACACCCUGUAGAAUUGUGGGCUGUAGCGU: 0.391
ACUGCUGGGUGGCCCAUCCCCCCUCACCAGGGGCAGGCACAGCACAGGGAUCCGACUUGAAUUUUCCCACUGCACCCCCUCCUGCUGCAGAGGGGCAGGCCCUGCACUGU: 0.421
CUAUUUCAGUGCUGUAGCUGUUAGUUUUAAGUGAGUGCUAAAGUUCUUUUAAAAGUACACAGAAUUUCCAUUCCUUAUAAAGGUGGCAAAAUUGGUUUGUCAUUUACCUC: 0.739
CCCCUGGUGGGGGAUUGGGGAUCUGUGUUUAGCCAUUUAUAUCUACUUUAGCUGUUAAAGAGGUCCAAAUGAAAAUCAGGUGAUUGUGGAACCAUGGGGACUUGGGGGUG: 0.333
AUCAUAUGAAUGUUCUUGGUUCCCAUUGUGACGAUUAUUUAUUUCUGUAAAAUUUGUUUAGAAGUACGUUUUUGCAUUAUUCAUAUGCUUCCCAGAGAAGCUCAUUUAGU: 1.76
CAGCCUCCCGAGUAGCUGGGAUUACAGGCACCCACCACCACGCUCAGCUAAUUUUUGUAUUUUUAGUAGAGAUGGGAUUUUGUCAUGUUGGCUAGGCUAGUCUCGAAUUC: 1.14
UGUAAUUGAAUUUGUAUAAUGCAGGCACUUUCUAAUUUAUUAGAGAUUAUGGAUCAGUUCUGACAUUAAAAUCAUAGUUAAUUGAUGGAUGGUUUUUAUAGUUUGUUGAU: 0.993
AUCAUUUCCCAUCCCGCUGUGUCUCUGGGUCUCCCUCCUCCCCAUCUCCACCCCCCAAGAGCCAUUGAGUGAGGUGCUUUUAGCCCUUUUGACUAAUUAGAAAUUCAGGC: 0.671

Repeated from above (series 4):
UCUAGCUUUUAAAGAACUACAUGUGUCUUUAAAAGUAUUUAUUGUGCAAAUGUACUAUAGCAGUUCAUCUUCAUGUUCCAGCCUUACUCUGUGUUAAUACUGCUUCACAA: 0.526
CAGCCUCCCGAGUAGCUGGGAUUACAGGCACCCACCACCACGCUCAGCUAAUUUUUGUAUUUUUAGUAGAGAUGGGAUUUUGUCAUGUUGGCUAGGCUAGUCUCGAAUUC: 1.14
CCCCUGGUGGGGGAUUGGGGAUCUGUGUUUAGCCAUUUAUAUCUACUUUAGCUGUUAAAGAGGUCCAAAUGAAAAUCAGGUGAUUGUGGAACCAUGGGGACUUGGGGGUG: 0.333
AAGUUAUACACAUUGAAGACCCUAAAAAUCCCAGUCCAUCAUUCAGCUUACCUCUGCGAACUUCUAUCUGGUAUUGAAUCAGUUUCAGAAACACAGACAGAUCCAAGGAA: 0.263
CUGUCAGUGGAUCCGUGCUUUGUCGGCCAGCGUUUCUGCAGUCUUUGUAAAGGCCCCACGAGAGCGGGCCAGGCCGUGUGCCUCAGGCCCUUCUCCCUGGGUGUGCUUAA: 0.267
